Measured values pooled from the literature.
Each numbered part is a random draw from the data of one study; scales do not carry over between parts. Positions count from the first letter of the parent shown.

Block 1
Target: ABI1, truncated, D143A, DHFR fusion (Arabidopsis thaliana)
Technique: DHFR PCA, deep sequencing
Matrix: yeast
Setting: methotrexate growth selection, single substitutions
With: (+)-ABA 2500 µM
Reference: wild-type fitted maximum
Reading: higher = stronger binding
Parent: PYL1, truncated, DHFR fusion (Arabidopsis thaliana); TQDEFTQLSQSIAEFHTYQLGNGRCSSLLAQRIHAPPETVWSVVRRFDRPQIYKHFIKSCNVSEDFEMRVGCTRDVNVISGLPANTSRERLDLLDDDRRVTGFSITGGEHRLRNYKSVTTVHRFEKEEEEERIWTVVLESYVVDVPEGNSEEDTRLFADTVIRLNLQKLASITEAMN
Change | relative binding score
N77Q | 98.1%
S117R | 8.71%
E14C | 87.9%
D97L | 98.4%
R90I | 86.3%
S59M | 99%
V118S | 86.5%
N77P | 51.4%
E67A | 92.1%
F15C | 87.6%
R88T | 99.6%
R24E | 102%
D92E | 101%
M68P | 90.1%
V143K | -5.36%
I57S | 57.8%
V100G | 76.7%
G23T | 99.8%
N165D | 71.1%
M68K | 84.6%
M68W | 94.5%
L94Y | 104%
H55T | 103%

Block 2
Target: UBE2U UBC core domain (UniProt Q5VVX9)
Technique: yeast two-hybrid
Matrix: yeast
Setting: mostly zero background
Reference: not given
Reading: higher = stronger interaction
B1: IRF2BPL RING domain (UniProt Q9H1B7); chain SPMANSGPLCCTICHERLEDTHFVQCPSVPSHKFCFPCSRESIKAQGATGEVYCPSGEKCPLVGSNVP
B2: TRIM63 RING domain (UniProt Q969Q1); chain PMENLEKQLICPICLEMFTKPVVILPCQHNLCRKCANDIFQAANPYWTSRGSSVSMSGGRFRCPTCRHEVIMDRHGV
B3: RNF170 RING domain (UniProt Q96K19); chain TRQQFYTDMYCPICLHQASFPVETNCGHLFCGACIIAYWRYGSWLGAISCPICRQTVTLLLTVF
Target sequence (chain): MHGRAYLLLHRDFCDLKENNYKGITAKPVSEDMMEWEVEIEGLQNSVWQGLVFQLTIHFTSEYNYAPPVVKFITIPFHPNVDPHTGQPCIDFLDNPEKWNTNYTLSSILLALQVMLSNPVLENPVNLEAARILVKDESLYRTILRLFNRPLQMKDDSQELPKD
Sequence | lacZ reporter activity
B1 (IRF2BPL RING domain) | 15300
B2 (TRIM63 RING domain) | 15700
B3 (RNF170 RING domain) | 7720
QLRRLQEERTCKVCMDKEVSVVFIPCGHLVVCQECAPSLRKCPICRGIIKGTVRTF (BIRC2 RING domain (UniProt Q13490)) | 0

Block 3
Target: Histone acetyltransferase KAT6A, both winged helices, GST fusion (KAT6A, Homo sapiens, UniProt Q92794, residues 1-181)
Technique: protein binding microarray
Form: double-stranded DNA, one strand shown
Matrix: in vitro
Tested at: not given
Setting: 8-mer, flanks averaged, mean of 2 arrays, mostly near background
Reference: not given
Reading: higher = stronger binding
Construct (chain): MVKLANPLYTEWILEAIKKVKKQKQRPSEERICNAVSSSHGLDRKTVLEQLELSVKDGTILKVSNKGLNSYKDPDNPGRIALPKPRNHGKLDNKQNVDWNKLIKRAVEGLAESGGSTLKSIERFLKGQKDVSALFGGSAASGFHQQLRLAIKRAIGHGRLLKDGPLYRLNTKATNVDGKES
Strand | E-score
GCGTCGAC | 0.0845
GGTGGATA | -0.084
GCATGCAC | 0.0882
CTCTGTAA | -0.0393
ACGACACA | -0.146
AGCACGGG | 0.173
CCTATACC | -0.0297
AGGGCGCA | 0.202
AGGAGCTA | -0.19
CATCCGAG | 0.0179
ACCTCGCC | 0.0887
GGGCCTGA | -0.025
CATTAAAG | -0.146
AAAATCGA | -0.0609
AAATTCCT | -0.0901
ATCATCGA | -0.0539
GCAGGTGA | -0.185
GAAGTGTC | -0.118
GCTTGCCA | -0.0546
TAATGCTA | -0.0246

Block 4
Target: Cyclic AMP-dependent transcription factor ATF-1, full length (ATF1, Homo sapiens, UniProt P18846, residues 1-271)
Technique: protein-binding microarray
Form: hairpin DNA
Matrix: in vitro
Tested at: not given
Setting: whole hairpin DNA, median over replicate spots
Reference: not given
Reading: higher = stronger binding
Shared flanks, not repeated: GAGGCCG … CGGCCTCACACTC
Residues (chain): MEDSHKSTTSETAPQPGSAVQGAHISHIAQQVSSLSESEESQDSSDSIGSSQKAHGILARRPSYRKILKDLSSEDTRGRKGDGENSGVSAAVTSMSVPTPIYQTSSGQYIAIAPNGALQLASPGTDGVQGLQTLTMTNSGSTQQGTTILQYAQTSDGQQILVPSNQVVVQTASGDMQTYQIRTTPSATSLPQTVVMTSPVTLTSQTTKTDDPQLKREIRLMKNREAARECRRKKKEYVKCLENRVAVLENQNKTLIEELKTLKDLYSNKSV
Strand | median fluorescence [a.u.]
GCTGCCGTCAGCCTCCTGGCTGACGGCAGC (5mC at 12) | 3590
GCTCGCGTCAGCCTCCTGGCTGACGCGAGC (5mC at 11 33) | 5390
ACGACGTCCTGCCTCCTGGCAGGACGTCGT (5mC at 9 15 35) | 3650
GCTGACCTCAGCCTCCTGGCTGAGGTCAGC | 3260
GATGACGTCGGCCTCCTGGCCGACGTCATC (5mC at 16 28) | 10200
GCTGACGTCGGCCTCCTGGCCGACGTCAGC (5mC at 28) | 7610
GCTCGCGTCAGCCTCCTGGCTGACGCGAGC (5mC at 33) | 5440
GCTGACGTTAGCCTCCTGGCTAACGTCAGC | 4990
AGGACGTCGTGCCTCCTGGCACGACGTCCT (5mC at 15 29 35) | 3590
ACCGCGTCGTGCCTCCTGGCACGACGCGGT (5mC at 9 15 29 34) | 5080
CGTGACGTCAGCCTCCTGGCTGACGTCACG | 19700
GATGACGTGAGCCTCCTGGCTCACGTCATC | 8100
GATGACGTAAGCCTCCTGGCTTACGTCATC | 11200
GCTGACGCGAGCCTCCTGGCTCGCGTCAGC | 4290
ACTACGTCGTGCCTCCTGGCACGACGTAGT (5mC at 9 15 29) | 5080
GCTGACGTCAGCCTCCTGGCTGACGTCAGC (5mC at 13) | 4890
ACCACGTCGTGCCTCCTGGCACGACGTGGT (5mC at 9 10 15 29) | 4490
GCTGACGACAGCCTCCTGGCTGTCGTCAGC | 4100
GATGACCGCAGCCTCCTGGCTGCGGTCATC (5mC at 14) | 3470
GCTCGCGTCAGCCTCCTGGCTGACGCGAGC (5mC at 11) | 4010
CGTGACGTCAGCCTCCTGGCTGACGTCACG (5mC at 8 36) | 15200

Block 5
Target: Interferon regulatory factor 5, full length, phosphomimetic (IRF5, Homo sapiens, UniProt Q13568-2, residues 1-514, S451D/S453D/S456D/S462D)
Technique: protein-binding microarray
Form: double-stranded DNA, one strand shown
Matrix: in vitro
Tested at: 940 nM top
Setting: 60-bp whole probe
With: salmon DNA 0.4 mg/ml
Reference: random background probes
Reading: higher = stronger binding
Shared flanks, not repeated: GCCTAGCAC … GTCTTGATTCGCTTGACGCTGCTG
Strand | fitted relative affinity [z-score]
TCATGTTTGAGTCTTCTACTGTGCTAG | -0.0636
TTAGATCTCAGTATCGAGTAGTGCTAG | 1.69
GACGGTCTCCTACTGCTAACGTGCTAG | -0.182
TTAGGTATCGTCTATCGGTTAGTGCTA | 4.32
GACGGTTTCGGTCTCGGGATGTGCTAG | 13.3
GACGGTCTTCTTTTCCTGACGTGCTAG | 1.03
TTAGATATCGGGTATCGATTGGTGCTA | 2.95
GACGGTATCCTTATCCTGCCGTGCTAG | 0.0673
TTAGGCATCCTTATCCTTTAGTGCTAG | -0.269
GTGTACATCTCTCTTAAATAGTGCTAG | 0.664
GACGGACTGCTTCTCCTGACGTGCTAG | -0.106
TCATCATTCCAATTCTTACTGTGCTAG | 1.24
TTTTTGGATGCTGGAAAAATGTGCTAG | -0.123
TCTGTTTTTGCTTTCCTTTAGTGCTAG | 2.11
GATGGTTTCCTTTTCCTGACGTGCTAG | 2.63
TTAGATAACAGTCTCGATTAGTGCTAG | 2.55
GACCGTTTCGGTCTCGGGACGTGCTAG | 6.84
GACGGTTTCGGACTGGGCACGTGCTAG | 5.96

Block 6
Target: CCNE2, cyclin fold, Cln2 fusion (human)
Technique: yeast growth competition, sequencing
Matrix: yeast
Setting: strong parent motif
Reference: not given
Reading: higher = stronger binding
Parent: INSM1 docking peptide (human); PKAIRKLHFEDEV
Change | normalised enrichment score
PKAIRKLHFSDEV [E10S] | 1.55
PKAIRKLHFMDEV [E10M] | 0.929
PKWIRKLHFEDEV [A3W] | 0.614
PKPIRKLHFEDEV [A3P] | 0.388
PKAIRKLHFQDEV [E10Q] | 0.98
PKAIRRLHFEDEV [K6R] | 1.39
PHAIRKLHFEDEV [K2H] | 1.85
PKATRKLHFEDEV [I4T] | 0.488
PKAIRKLHFEDPV [E12P] | 1.91
PKFIRKLHFEDEV [A3F] | 0.717
PKAIRKGHFEDEV [L7G] | 0.045
PKAIRKFHFEDEV [L7F] | -0.323
PKAIRKLHEEDEV [F9E] | -0.19
PKAIRKLHFEDRV [E12R] | 1.83
PKAIRLLHFEDEV [K6L] | 0.226
PKAIRKLIFEDEV [H8I] | 2.33
PKAIRKTHFEDEV [L7T] | 0.202
PKAQRKLHFEDEV [I4Q] | 0.952

A few entries again (block 5):
Strand | fitted relative affinity [z-score]
TTAGATCTCAGTATCGAGTAGTGCTAG | 1.69
GACGGTCTCCTACTGCTAACGTGCTAG | -0.182
TTAGGTATCGTCTATCGGTTAGTGCTA | 4.32
GACGGTTTCGGTCTCGGGATGTGCTAG | 13.3
GACGGTCTTCTTTTCCTGACGTGCTAG | 1.03
TTAGATATCGGGTATCGATTGGTGCTA | 2.95
GACGGTATCCTTATCCTGCCGTGCTAG | 0.0673
TTAGGCATCCTTATCCTTTAGTGCTAG | -0.269
GTGTACATCTCTCTTAAATAGTGCTAG | 0.664
GACGGACTGCTTCTCCTGACGTGCTAG | -0.106
TCATCATTCCAATTCTTACTGTGCTAG | 1.24
TTTTTGGATGCTGGAAAAATGTGCTAG | -0.123
TCTGTTTTTGCTTTCCTTTAGTGCTAG | 2.11
GATGGTTTCCTTTTCCTGACGTGCTAG | 2.63
TTAGATAACAGTCTCGATTAGTGCTAG | 2.55
